Results collected from several papers.
Lines come from different studies, so protocols differ. Numbers after ± are the reported error.

`C[Si](C)(C)C[C@H](CN)CC(=O)O` gave a Cmax of 482 µM (male Sprague-Dawley rat, plasma; oral, 100 mg/kg, single dose).
For `CCCCCCc1ccc(Oc2ccccc2C#N)c(O)c1`, the Cmax was 790 ng/mL (CD-1 mice, plasma; subcutaneous, dose not given).
`N=C(N)NCCC[C@@H]1NC(=O)[C@H](Cc2c[nH]c3ccccc23)NC(=O)[C@@H](CC2CCCCC2)NC(=O)[C@@H]2CCCN2C(=O)[C@@H](NC(=O)CCc2ccccc2)CCCNC1=O` gave a Cmax of 220 ng/g (C57BL/6J mice, spinal cord; intraperitoneal, 1 mg/kg).
`C[Si]1(C[C@H](CN)CC(=O)O)CCCC1` has a Cmax of 112 µM (male Sprague-Dawley rat, plasma; oral, 100 mg/kg, single dose).
The Cmax of `Cc1ccc(OCC(=O)N(Cc2cccs2)c2ccn[nH]2)cc1` is reported as 900 ng/mL (male Sprague-Dawley rat, plasma; intravenous, 1 mg/kg, single dose).
`Cn1c(=O)oc2ccc(-c3ccc(CC(C#N)NC(=O)C4CNCCCO4)c(F)c3)cc21` (stereo not drawn) has a Cmax of 161 ng/mL (human, plasma; 20 mg once daily, day 28, geometric mean).
For `CC(C)(Sc1cc[n+]([O-])cc1-c1ccc(C#N)c2ccccc12)C(=O)OC1OC(C(=O)O)C(O)C(O)C1O` (stereo not drawn), the Cmax was 37.2 ng/mL (plasma; oral, 15 mg, mild renal impairment, fasted).
`CSCOC1C(=O)C2(C)C(OCSC)CC3OCC3(OC(C)=O)C2C(OC(=O)c2ccccc2)C2(O)CC(OC(=O)C(O)C(C=C(C)C)NC(=O)OC(C)(C)C)C(C)=C1C2(C)C` (stereo not drawn) gave a Cmax of 67.6 ng/mL (female Sprague-Dawley rat, plasma; intravenous, 1 mg/kg).
`CC1=C(/C=C/C(=O)N2CCN(C(N)=O)CC2)C(C)(C)CCC1` has a Cmax of 94.2 nmol/g (male mice, retina; oral, 120 mg/kg).
`CC(C)(C)ONc1nc(Nc2ccnc(C(F)(F)F)c2)nc(-c2cccc(C(F)(F)F)n2)n1` gave a Cmax of 2280 ng/mL (female Balb/cA nude mice xenograft, plasma; oral, 18.05 mg/kg).
The Cmax of `CCc1cc(Nc2nc(-c3ccc(-n4cnc(C)c4)c(F)c3)cs2)c(C)cc1C` is reported as 484 ng/mL (human, both sexes, plasma; oral, 200 mg once daily, day 14, multiple dose, geometric mean).
For `Cc1ccc(OCC(=O)O)cc1`, the Cmax was 2450 ± 274 ng/mL (Sprague-Dawley rat Crl:CD(SD), male, plasma; oral, 30 mg/kg/day of parent drug, day 90, 90-day repeated dosing).
The Cmax of `NC(=O)/C=C/c1cccc(S(=O)(=O)Nc2ccccc2)c1` is reported as 1260 ng/mL (patients with normal liver function, plasma; intravenous, 400 mg/m^2 belinostat, single 30 min infusion, cycle 1 day -7, mean).
With `CCc1c2c(nc3ccc(O)cc13)-c1cc3c(c(=O)n1C2)COC(=O)[C@]3(O)CC` the Cmax was 154 ng/mL (human patients, plasma; intravenous, 56 mg/m^2 of parent drug).
`COc1cc(C)c(Cc2ccc(O)cc2)cc1[C@@H]1S[C@H](CO)[C@@H](O)[C@H](O)[C@H]1O` has a Cmax of 0.726 ± 0.136 ng/mL (Japanese T2DM patients, plasma; 0.5 mg luseogliflozin, day 1, once daily).

Excerpt of the above:
The Cmax of `Cc1ccc(OCC(=O)N(Cc2cccs2)c2ccn[nH]2)cc1` is reported as 900 ng/mL (male Sprague-Dawley rat, plasma; intravenous, 1 mg/kg, single dose).
